# Assay results from different studies.
# Each numbered part is a random draw from the data of one study; scales do not carry over between parts.

# Study 1 — technique: RNA Bind-n-Seq; molecule type: RNA; sample: in vitro; concentration: 200 nM; notes: whole 134-nt RNA, ends assumed; added: 150 mM KCl; relative to: input library; reading: higher = stronger binding
# Target: Fragile X messenger ribonucleoprotein 1, C-terminal low-complexity region (Fmr1, Mus musculus, UniProt P35922)
Oligonucleotide,log2 enrichment
GGGAGUUCUACAGUCCGACGAUCACCAUGCAGGUGGGCAUCUUUGGGAAGUGGGUCAAGGGGGGGAUAGGGAGGGGGGUAACACUUUGGGAACAGGUGGUCCCAGGUCGUUUCUGGAAUUCUCGGGUGUCAAGG,0.921
GGGAGUUCUACAGUCCGACGAUCUCCUGUGCUACACAUCGUAUGUACCGAAUCAAAUUUUUUUAAACCCCCAAACCCCCAAAAAAGUAUUAUGUUACGCCGUUCGGAUCUGCAUGGAAUUCUCGGGUGUCAAGG,-0.226
GGGAGUUCUACAGUCCGACGAUCCCUCAAGUCCUGUGCUACACAUCGUAUGUACCGAAUCGGGCGGGCGGGGCGGAAAGUAUUAUGUUACGCCGUUCGGAUCUGCACUUCCAGUGGAAUUCUCGGGUGUCAAGG,0.972
GGGAGUUCUACAGUCCGACGAUCUCCUGUGCUACACAUCGUAUGUACCGAAUCGGGAAAAAGGGGAAAAAGGGGAAAAAGGGAAAGUAUUAUGUUACGCCGUUCGGAUCUGCAUGGAAUUCUCGGGUGUCAAGG,-0.0132

# Study 2 — technique: universal PBM; molecule type: double-stranded DNA, one strand shown; sample: in vitro; concentration: 600 nM; reading: higher = stronger binding
# Target: Sal-like protein 4, full length isoform A (SALL4, Homo sapiens, UniProt Q9UJQ4, residues 1-1053)
# Chain of UniProt Q9UJQ4 (whole entry, looked up): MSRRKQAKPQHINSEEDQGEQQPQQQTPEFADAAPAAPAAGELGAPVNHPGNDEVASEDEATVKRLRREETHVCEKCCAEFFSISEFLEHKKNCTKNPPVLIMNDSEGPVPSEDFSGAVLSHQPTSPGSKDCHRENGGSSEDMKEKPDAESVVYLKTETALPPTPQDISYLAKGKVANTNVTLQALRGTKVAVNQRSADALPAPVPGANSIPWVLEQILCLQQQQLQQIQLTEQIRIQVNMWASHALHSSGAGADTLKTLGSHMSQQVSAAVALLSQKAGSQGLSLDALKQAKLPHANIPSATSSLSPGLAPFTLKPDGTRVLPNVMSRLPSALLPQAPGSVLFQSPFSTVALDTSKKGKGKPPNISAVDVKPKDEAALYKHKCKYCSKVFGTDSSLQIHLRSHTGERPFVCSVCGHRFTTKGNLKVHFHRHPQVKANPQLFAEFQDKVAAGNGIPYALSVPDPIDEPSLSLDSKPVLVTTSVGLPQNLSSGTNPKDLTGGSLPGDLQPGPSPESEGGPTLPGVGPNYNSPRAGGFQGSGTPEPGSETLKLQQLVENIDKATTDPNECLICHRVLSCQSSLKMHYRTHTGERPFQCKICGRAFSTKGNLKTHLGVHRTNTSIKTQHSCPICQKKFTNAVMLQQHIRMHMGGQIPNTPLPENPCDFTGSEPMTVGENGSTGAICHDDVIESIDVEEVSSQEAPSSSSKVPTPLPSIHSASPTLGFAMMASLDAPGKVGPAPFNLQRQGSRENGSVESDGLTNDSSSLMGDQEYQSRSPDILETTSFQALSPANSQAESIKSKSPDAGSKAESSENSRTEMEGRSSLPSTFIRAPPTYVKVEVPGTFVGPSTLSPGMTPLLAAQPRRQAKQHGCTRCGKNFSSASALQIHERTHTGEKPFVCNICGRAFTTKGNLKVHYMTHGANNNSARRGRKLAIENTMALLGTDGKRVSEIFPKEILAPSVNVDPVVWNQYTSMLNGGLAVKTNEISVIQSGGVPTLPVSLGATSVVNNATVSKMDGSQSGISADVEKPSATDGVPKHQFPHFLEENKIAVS
# Notes: 8-mer, flanks averaged, mean of replicates
Oligonucleotide,E-score
AAAGGGGA,-0.17
AGCGTCTC,-0.268
ACCCCACG,-0.323

# Further values, each from its own experiment
Substance,target,test,test system,conditions,how to read,endpoint,value
"PhoQ, residues 284 288 289 292 302 303 TAVSDG","PhoP, residues 12 14 15 18 19 SPWRL (Escherichia coli, UniProt P23836)","Sort-seq, measured: YFP reporter",E. coli,"PhoQ-PhoP variant library, added: 10 µM Mg2+","relative to: high Mg2+ state, higher = stronger signaling",fold induction,0.879
CCAATGGC,"Histone acetyltransferase KAT6A, both winged helices, GST fusion (KAT6A, Homo sapiens, UniProt Q92794, residues 1-181)",protein binding microarray,"double-stranded DNA, one strand shown, in vitro","not given, 8-mer, flanks averaged, mean of 2 arrays, mostly near background","relative to: not given, higher = stronger binding",E-score,-0.0117

# Excerpt of the above (further values, each from its own experiment):
Substance,target,test,test system,conditions,how to read,endpoint,value
CCAATGGC,"Histone acetyltransferase KAT6A, both winged helices, GST fusion (KAT6A, Homo sapiens, UniProt Q92794, residues 1-181)",protein binding microarray,"double-stranded DNA, one strand shown, in vitro","not given, 8-mer, flanks averaged, mean of 2 arrays, mostly near background","relative to: not given, higher = stronger binding",E-score,-0.0117
